Assay results of several laboratories.
Each numbered part is a random draw from the data of one study; scales do not carry over between parts. Values joined by “and” are separate records of one study, mostly repeats; a detail may differ.

Set 1
Structure (SMILES): CCN1/C(=C/C=C2\CCCC(/C=C/C3=[N+](CC)c4ccccc4C3(C)C)=C2NCCCCCCCCN2CCC(Nc3nc4ccccc4n3Cc3ccc(F)cc3)CC2)C(C)(C)c2ccccc21
Cell line: U-87 MG
Concentration: concentration not given
Relative to: DMSO
measured | log2 fold change
PLXND1 mRNA | -1.29
ZNF770 mRNA | 0.957
STING1 mRNA | -1.56
OSBPL8 mRNA | 0.891
SEC11C mRNA | 1.08
HOXB3 mRNA | -1.07
FBXO28 mRNA | 0.979
ENDOD1 mRNA | -1.13
TRAM1L1 mRNA | -1.65
BMPER mRNA | -2.68
DENND1B mRNA | -1.39
EHBP1L1 mRNA | -1.1
RASSF5 mRNA | 1.15
NUF2 mRNA | -2.01
VGF mRNA | -1.36
SHROOM1 mRNA | -1.03

Set 2
SMILES: C[C@@H]1CN(c2ccc(-c3cc(C(=O)NCCOCCOCCOCCOCCOCCOCCNC(=O)/C=C/c4[nH]cc(C(=O)N[C@@H](CC(N)=O)c5ccc(F)c(Cl)c5)c4-c4ccc(Cl)cc4F)ccc3F)cc2NC(=O)c2ccc(F)cc2C(F)(F)F)C[C@H](C)N1C
Read-out: thermal unfolding
Technique: differential scanning fluorimetry
Concentration: 5.5 µM
Direction: higher = more unfolded
DCAF1: DDB1- and CUL4-associated factor 1 (DCAF1, Homo sapiens, UniProt Q9Y4B6)
Sequence of UniProt Q9Y4B6 (whole entry, looked up): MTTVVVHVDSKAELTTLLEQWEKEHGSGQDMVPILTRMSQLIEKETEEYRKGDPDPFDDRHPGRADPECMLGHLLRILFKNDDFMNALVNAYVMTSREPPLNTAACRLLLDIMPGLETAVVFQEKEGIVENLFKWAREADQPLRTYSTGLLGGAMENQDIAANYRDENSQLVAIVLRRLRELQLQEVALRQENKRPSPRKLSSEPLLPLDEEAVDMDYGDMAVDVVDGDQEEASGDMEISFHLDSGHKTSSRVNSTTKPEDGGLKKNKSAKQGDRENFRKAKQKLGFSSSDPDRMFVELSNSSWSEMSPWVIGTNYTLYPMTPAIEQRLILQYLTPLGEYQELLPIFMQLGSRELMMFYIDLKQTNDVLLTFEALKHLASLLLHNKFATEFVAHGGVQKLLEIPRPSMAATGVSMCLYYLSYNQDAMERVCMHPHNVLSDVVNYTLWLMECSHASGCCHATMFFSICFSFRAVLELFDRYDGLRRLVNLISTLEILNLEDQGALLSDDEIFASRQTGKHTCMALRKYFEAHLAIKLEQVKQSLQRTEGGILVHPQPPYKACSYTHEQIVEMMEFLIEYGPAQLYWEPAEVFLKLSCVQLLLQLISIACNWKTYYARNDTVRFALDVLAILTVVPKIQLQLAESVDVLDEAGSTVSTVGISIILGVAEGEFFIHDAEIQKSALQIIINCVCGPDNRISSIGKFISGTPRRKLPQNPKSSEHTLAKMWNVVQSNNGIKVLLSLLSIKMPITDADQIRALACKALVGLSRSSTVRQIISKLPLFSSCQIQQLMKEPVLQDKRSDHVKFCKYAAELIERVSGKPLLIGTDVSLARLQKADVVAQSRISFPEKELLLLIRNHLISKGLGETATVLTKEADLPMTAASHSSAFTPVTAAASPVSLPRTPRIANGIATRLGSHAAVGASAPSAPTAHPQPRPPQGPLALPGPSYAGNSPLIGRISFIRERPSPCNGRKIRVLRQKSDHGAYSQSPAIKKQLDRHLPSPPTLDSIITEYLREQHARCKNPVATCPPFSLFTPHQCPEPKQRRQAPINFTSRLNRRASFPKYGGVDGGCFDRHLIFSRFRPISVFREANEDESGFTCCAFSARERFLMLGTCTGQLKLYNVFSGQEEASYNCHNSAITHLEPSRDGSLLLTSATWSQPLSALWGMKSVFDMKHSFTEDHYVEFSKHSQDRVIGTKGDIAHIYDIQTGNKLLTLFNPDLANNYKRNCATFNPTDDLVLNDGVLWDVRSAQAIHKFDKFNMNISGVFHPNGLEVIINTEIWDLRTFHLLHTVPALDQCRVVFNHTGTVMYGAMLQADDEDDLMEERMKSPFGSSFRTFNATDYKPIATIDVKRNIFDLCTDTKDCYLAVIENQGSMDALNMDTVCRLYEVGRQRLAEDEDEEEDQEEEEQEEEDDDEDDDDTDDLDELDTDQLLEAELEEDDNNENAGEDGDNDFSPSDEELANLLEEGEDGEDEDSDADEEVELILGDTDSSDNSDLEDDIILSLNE
WDR5: WD repeat-containing protein 5 (WDR5, Homo sapiens, UniProt P61964)
target | temperature | SYPRO Orange fluorescence [a.u.]
DCAF1 | 35.2 °C | 9960
WDR5 | 37.8 °C | 13800
WDR5 | 31 °C | 13600
WDR5 | 52.01 °C | 16700
WDR5 | 72.21 °C | 36500
WDR5 | 85.41 °C | 61500
WDR5 | 66.61 °C | 18400
WDR5 | 71.61 °C | 33900
DCAF1 | 84.21 °C | 36700
WDR5 | 78.01 °C | 60300
WDR5 | 71.81 °C | 34700

Set 3
SMILES: Cc1ccc(O)c(C)c1-c1cnc2[nH]c(-c3cnc(N4CCC(CN5CCN(c6ccc7c(c6)C(=O)N(C6CCC(=O)NC6=O)C7=O)CC5)CC4)nc3)cc2c1C#N (centres unmarked)
Cell line: HCC1569
Technique: in-cell western
Measured: CDK1 phospho-Thr14
concentration | pCDK1 (Thr14) level
1000 nM | 108% and 110%
1.37 nM | 13.9% and 20.7%
333.33 nM | 95.4% and 98%
4.12 nM | 17.8% and 22.8%
0.457 nM | 16.6% and 10.6%
37.04 nM | 43.7% and 52.8%
111.11 nM | 72.5% and 73.6%
12.35 nM | 41.9% and 43.8%

Set 4
Organism: Arabidopsis thaliana
Strain: Col-0
Concentration: 3.125 µg/mL
Notes: seed germination, single repetition
SMILES | hypocotyl length
CN1C(=O)C(O)(C(=O)O)Oc2cc(F)ccc21 (centres unmarked) | 2.34 cm and 2.32 cm and 2.2 cm and 2.33 cm and 2.24 cm
CCCN1C(=O)C(O)(C(=O)O)Oc2cc(F)ccc21 (centres unmarked) | 2.2 cm and 2.25 cm and 2.21 cm and 2.45 cm
O=C(O)C1Oc2cc(F)ccc2N(Cc2ccccc2)C1=O (centres unmarked) | 2.35 cm and 2.36 cm and 2.34 cm
O=C(O)C1(O)Oc2ccccc2N(Cc2ccccc2)C1=O (centres unmarked) | 1.89 cm and 2.04 cm and 2 cm and 1.98 cm and 2.01 cm
CC(C)(C)c1ccc(Oc2ccc3c(c2)OC(O)(C(=O)O)C(=O)N3Cc2ccccc2)cc1 (centres unmarked) | 2.35 cm and 2.25 cm and 2.26 cm and 2.34 cm

Other studies, line by line
Compound | technique | species | medium | dose | endpoint | value
Cc1nc(C)c(C=[N+]([O-])C(C)(C)C)nc1C | stereological counting | MPTP mouse model | substantia nigra | 10 mg/kg | TH-positive neuron count | 7260 and 7070 and 7530 and 6790
